# Measured values gathered from unrelated publications.
# Protocols differ between the studies behind these lines. ± gives the spread as reported.
# Organism: Trypanosoma cruzi
SMILES,test,system,setting,EC50
Fc1ccc(-c2cn3ccccc3n2)cc1F,,"3T3 host cells, Tulahuen beta-galactosidase",6 days,> 20 µM
O=c1cc[s+]([O-])c2ccc(F)cc12 (racemic),intracellular amastigote growth,"U-937, Tulahuen, β-galactosidase transfected",72 h,102 µM
CCC(=O)C[C@@H](O)C[C@@H](C)C[C@H](NC(=O)[C@@H]1C[C@H](C)CN1C(=O)/C=C/[C@@H](C)CC)C(=O)N[C@H](C(=O)NC(C)(C)C(=O)N[C@@H](CC(C)C)C(=O)N[C@@H](CC(C)C)C(=O)NC(C)(C)C(=O)NC(C)(C)C(=O)NCCC(=O)N[C@@H](C)CN(C)C)[C@H](O)C(C)C,"amastigote replication, high-content imaging","C2C12, CA-I/72",72 h,0.0071 ± 0.0016 µM
CCOC(=O)c1c(C)oc2nc(N3CCN(c4ccccc4)CC3)ccc12,,"3T3 host cells, Tulahuen beta-galactosidase",6 days,3.4 µM
"O=c1cc[s+]([O-])c2ccc(Cl)cc12 (single isomer, unassigned; (-))",intracellular amastigote growth,"U-937, Tulahuen, β-galactosidase transfected",72 h,94 µM
Cc1ccc2nc(-c3ccccc3)c(CNc3cccc(C(F)(F)F)c3)n2c1,,"3T3 host cells, Tulahuen beta-galactosidase",6 days,> 20 µM
Cc1nc(C)c(C(=O)Nc2ccc(F)c(-c3nc4ncc(-c5ccccn5)cn4n3)c2)o1,ubiquitylated protein accumulation,epimastigotes,,0.13 µM
Cc1ccc2nc(-c3ccc(F)c(F)c3)c(CN3CCN(CCc4cccnc4)CC3)n2c1,,"3T3 host cells, Tulahuen beta-galactosidase",6 days,1.8 µM
O=c1cc[s+]([O-])c2ccccc12 (racemic),intracellular amastigote growth,"U-937, Tulahuen, β-galactosidase transfected",72 h,112 µM
CCCCCCCCCCCCCCCCn1cc[n+](Cc2ccccc2)c1C,"parasite growth, imaging",U2OS,"72 h, intracellular, amastigote",0.6 µM
CNC(=O)c1c(F)cccc1Nc1nc(Nc2cc3c(cc2OC)CCN3C(=O)CN(C)C)nc2[nH]ccc12,parasite growth,TULAHUEN,"intracellular, amastigote",10 µM
CCCCCCCCCC1=CC(=O)c2ccccc2S1(=O)=O,intracellular amastigote growth,"U-937, Tulahuen, β-galactosidase transfected",72 h,249 µM
Clc1ccc(C(c2ccc(Cl)cc2)n2cc[n+](CC(OCc3ccc(Cl)cc3Cl)c3ccc(Cl)cc3Cl)c2)cc1 (centres unmarked),,"U-2 OS host cells, Y","72 h, intracellular amastigotes, added: FBS 10%",2 µM
CCOC(=O)c1csc(NN=Cc2ccc(Cl)cc2)n1,parasite growth,,"24 h, trypomastigote",24.9 µM

# A few entries again:
SMILES,test,system,setting,EC50
CCOC(=O)c1c(C)oc2nc(N3CCN(c4ccccc4)CC3)ccc12,,"3T3 host cells, Tulahuen beta-galactosidase",6 days,3.4 µM
O=c1cc[s+]([O-])c2ccc(F)cc12 (racemic),intracellular amastigote growth,"U-937, Tulahuen, β-galactosidase transfected",72 h,102 µM
